Published values collected from several papers.
Lines come from different studies, so protocols differ. Numbers after ± are the reported error.
Cell line: RAW264.7

| Compound | test | conditions | scale | quantity | value |
| --- | --- | --- | --- | --- | --- |
| Cc1ccc(C)c(NC(=O)CSc2nnc(-c3ccc(NC(=O)c4cccnc4)cc3)o2)c1 | NO release, inhibitor, Griess | LPS-stimulated |  | IC50 | 60.2 µM |
| COC(=O)[C@H]1Cc2c([nH]c3ccccc23)CN1S(=O)(=O)c1ccc(C)cc1 | NO release, inhibitor, Griess | 50 µM, LPS-stimulated |  | inhibition | < 10% |
| O=C(CSc1nnc(-c2ccc(NC(=O)c3cccnc3)cc2)o1)Nc1cccc(Br)c1 | NO release, inhibitor, Griess | LPS-stimulated |  | IC50 | > 100 µM |
| COc1cc(OC)cc(-c2cc3ccccc3[nH]2)c1 | NO release, inhibitor, Griess | 50 µM, 20 h, LPS-stimulated |  | inhibition | 62.6% |
| CCN(CC)C(=O)Cc1c(-c2ccc(OCC[18F])cc2)nn2c(C)cc(C)nc12 |  | 1 h, 37 °C | reference: added dose | maximal uptake | 45.55 ± 0.02% |
| C=C(C)[C@@H]1CC[C@]2(C(=O)O)CC[C@]3(C)[C@H](CC[C@@H]4[C@@]5(C)CC[C@H](O)C(C)(C)[C@@H]5CC[C@]43C)[C@@H]12 | LPS-induced NO production, inhibitor, Griess reaction | 24 h, with: 100 ng/mL LPS |  | EC50 | 14 ± 1 µM |
| O=C(CSc1nnc(-c2ccc(NC(=O)c3cccnc3)cc2)o1)Nc1ccc([N+](=O)[O-])cc1 | NO release, inhibitor, Griess | LPS-stimulated |  | IC50 | 0.4 µM |
| CC(C)/C=C/c1c(O)cc(/C=C/C2=CC(=O)OC2CC(=O)O)cc1O (stereo not drawn) | NO release, inhibitor | LPS-stimulated |  | IC50 | > 25 µg/mL |
| CC(C)C[C@H](NC(=O)[C@H](CC(C)C)NC(=O)[C@H](CCCCN)NC(=O)[C@H](CC(C)C)NC(=O)[C@@H]1CCCN1C(=O)[C@H](CCCCN)NC(=O)[C@H](CCCCN)NC(=O)[C@H](CC(C)C)NC(=O)[C@H](CC(C)C)NC(=O)[C@H](CCCCN)NC(=O)[C@H](CCCCN)NC(=O)[C@H](Cc1c[nH]c2ccccc12)NC(=O)[C@H](CCCCN)NC(=O)CNC(=O)CNC(=O)CNC(=O)[C@H](CCCNC(=N)N)NC(=O)[C@H](CCCNC(=N)N)NC(=O)[C@H](CCCNC(=N)N)NC(=O)[C@H](CCCNC(=N)N)NC(=O)[C@H](CCCNC(=N)N)NC(=O)[C@H](CCCNC(=N)N)NC(=O)[C@H](CCCNC(=N)N)NC(=O)[C@H](CCCNC(=N)N)NC(=O)[C@@H](N)CCCNC(=N)N)C(=O)N[C@@H](CCCCN)C(=O)N[C@@H](CCCCN)C(N)=O |  | 2 µM, 24 h, with: LPS 20 ng/mL |  | NO production | inhibited |
| O=C(O)Cc1ccccc1Nc1c(Cl)cccc1Cl | IL-6 release, inhibitor, ELISA | LPS-stimulated |  | IC50 | 23 µM |
| CCCCC[C@@H](O)[C@H]1C(=O)O[C@H](C)[C@@H](O)/C=C/C=C/C=C/C=C/C=C(\C)[C@@H](O)C[C@H](O)C[C@H](O)C[C@H](O)C[C@H](O)C[C@H](O)C[C@@H]1O | endocytosis inhibitor, confocal microscopy | concentration not given, 30 min pre-incubation, 37 °C, with: TAMRA-GKY25 2 µM for 1 h |  | uptake of TAMRA-GKY25 | inhibited |
| FC(F)(F)Oc1ccc(-c2cc3ccccc3[nH]2)cc1 | sulforhodamine B | 50 µM, 20 h | reference: vehicle | viability | 106 ± 3.5% |
| C[C@@H]1C[C@H]2[C@@H]3CCC4=CC(=O)C=C[C@]4(C)[C@@]3(F)[C@@H](O)C[C@]2(C)[C@@]1(O)C(=O)CO | qPCR | 0.5 µM, 1 h pretreatment, with: LPS 10 ng/mL, 24 h | reference: LPS alone | iNOS mRNA fold change | 0.98 ± 0.11 |
| COc1ccc2cc(-c3cc4ccccc4[nH]3)ccc2c1 | sulforhodamine B | 50 µM, 20 h | reference: vehicle | viability | 58 ± 7.7% |
| CC(C)COC(=O)N1Cc2[nH]c3ccccc3c2C[C@H]1C(=O)O | NO release, inhibitor, Griess | 50 µM, LPS-stimulated |  | inhibition | -3.4% |
| C#CCn1c(-c2ccccc2)cc2ccccc21 | NO release, inhibitor, Griess | 50 µM, 20 h, LPS-stimulated |  | inhibition | 96.9% |
| O=C(CSc1nnc(-c2ccc(NC(=O)c3cccnc3)cc2)o1)Nc1ccccc1Cl | NO release, inhibitor, Griess | LPS-stimulated |  | IC50 | 47.3 µM |
| ON=Cc1c(-c2ccccc2)[nH]c2ccccc12 | sulforhodamine B | 50 µM, 20 h | reference: vehicle | viability | 90.8 ± 2.4% |
| Cc1ccc(C=Nn2c(-c3ccc(NC(=O)c4cccnc4)cc3)n[nH]c2=S)cc1 | TNF-α release, inhibitor, ELISA | LPS-stimulated |  | IC50 | 7.73 µM |
| Fc1ccc(-c2cc3ccccc3[nH]2)cc1 | NO release, inhibitor, Griess | 50 µM, 20 h, LPS-stimulated |  | inhibition | 58% |
| CCOC(=O)c1[nH]c2cc(Cl)ccc2c1C(=O)C[C@@H](C)CCCC(C)C | refers to: IL-10 | 1 nM, 20 h, lowest effective concentration, with: LPS/IFNγ last 4 h, linoleic acid 10 µM | reference: untreated | mRNA level | > 2 fold |
